Measurements collected from several papers.
Numbered parts are unrelated; each lists some results of a single study. Changes are numbered by the printed parent chain.

Set 1 — method: protein-binding microarray; molecule type: hairpin DNA; sample: in vitro; concentration: not given; reference: not given; reading: higher = stronger binding
Target: Transcription factor SOX-2, HMG box (SOX2, Homo sapiens, UniProt P48431, residues 37-118)
Chain of UniProt P48431 (37-118, looked up): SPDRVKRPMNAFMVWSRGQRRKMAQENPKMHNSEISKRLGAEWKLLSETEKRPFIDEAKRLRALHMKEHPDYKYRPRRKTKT
Notes: whole hairpin DNA, median over replicate spots
Shared flanks, not repeated: GCAGGCCCAC … GTGGGCCTGCACACTCTTTCCCTACACGAC
The median fluorescence of `AAAGGGCCTCCTGGCCCTTT` is reported as 2620 a.u.
`CGTGGGCCTCCTGGCCCACG (5mC at 11)` gave a median fluorescence of 2430 a.u.
With `ACAGGGCCTCCTGGCCCTGT` the median fluorescence was 2390 a.u.
`AACGGGCCTCCTGGCCCGTT` has a median fluorescence of 2490 a.u.
`AACGGGCCTCCTGGCCCGTT (5mC at 13 27)` gave a median fluorescence of 2350 a.u.
`ACCGGGCCTCCTGGCCCGGT (5mC at 12)` has a median fluorescence of 2350 a.u.

Set 2 — method: universal PBM; molecule type: double-stranded DNA, one strand shown; sample: in vitro; concentration: not given; reading: higher = stronger binding
Target: Sal-like protein 4, full length isoform B (SALL4, Homo sapiens, UniProt Q9UJQ4-2, residues 1-616)
Notes: 8-mer, flanks averaged, mean of replicates
Construct (chain): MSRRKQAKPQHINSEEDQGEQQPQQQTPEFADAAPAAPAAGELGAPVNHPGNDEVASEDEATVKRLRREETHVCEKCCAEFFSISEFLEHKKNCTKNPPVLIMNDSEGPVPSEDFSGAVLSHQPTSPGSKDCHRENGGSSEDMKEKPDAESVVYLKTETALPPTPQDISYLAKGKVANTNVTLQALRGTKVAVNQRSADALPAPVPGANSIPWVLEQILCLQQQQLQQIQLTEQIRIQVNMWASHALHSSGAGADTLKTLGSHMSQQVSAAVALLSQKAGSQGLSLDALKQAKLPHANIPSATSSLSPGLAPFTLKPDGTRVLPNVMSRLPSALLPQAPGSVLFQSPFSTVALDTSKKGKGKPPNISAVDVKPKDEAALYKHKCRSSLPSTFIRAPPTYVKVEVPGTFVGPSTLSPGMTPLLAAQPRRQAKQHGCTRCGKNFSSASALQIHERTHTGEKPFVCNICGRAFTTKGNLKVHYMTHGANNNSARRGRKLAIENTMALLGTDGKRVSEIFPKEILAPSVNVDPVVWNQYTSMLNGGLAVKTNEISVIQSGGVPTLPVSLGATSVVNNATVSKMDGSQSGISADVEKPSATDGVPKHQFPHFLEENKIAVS
The E-score of `TACCAAAA` is reported as 0.235.
For `CTTAGCAA`, the E-score was -0.0421.
`AATCGAAT` gave an E-score of 0.143.
With `ATCGTTGA` the E-score was 0.00724.
`ATCACAAT` gave an E-score of 0.219.

Set 3 — target: CCNA1, cyclin fold, Cln2 fusion (human); method: yeast growth competition, sequencing; sample: yeast; notes: weak parent motif; reference: not given; reading: higher = stronger binding
Parent: E2F1 docking peptide (human); PPVKRRLDLETDH; partner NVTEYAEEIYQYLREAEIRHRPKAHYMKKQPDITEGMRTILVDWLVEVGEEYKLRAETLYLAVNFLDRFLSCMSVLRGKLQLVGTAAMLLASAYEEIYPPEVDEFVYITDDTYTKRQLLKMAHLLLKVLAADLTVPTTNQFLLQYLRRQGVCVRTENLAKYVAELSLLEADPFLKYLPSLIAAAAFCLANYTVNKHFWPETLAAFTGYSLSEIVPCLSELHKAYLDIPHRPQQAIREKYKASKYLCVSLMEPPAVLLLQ
Under “normalised enrichment score”, `R5K` is recorded as 0.398.
For `P1E`, “normalised enrichment score” read 0.296.
For `E10W`, “normalised enrichment score” read 0.442.
`P1A`: “normalised enrichment score” 0.552.
For `R5P`, “normalised enrichment score” read -0.149.

Single results of other studies
`PhoQ, residues 284 288 289 292 302 303 TNASYF` gave a fold induction of 10.1 (PhoP, residues 12 14 15 18 19 SEGLL (Escherichia coli, UniProt P23836); Sort-seq, item: YFP reporter; E. coli; PhoQ-PhoP variant library, together with: 10 µM Mg2+; reference: high Mg2+ state, higher = stronger signaling).

For quick reference, copied from above (set 2):
The E-score of `TACCAAAA` is reported as 0.235.
With `ATCGTTGA` the E-score was 0.00724.
`AATCGAAT` gave an E-score of 0.143.
